Measured values of several laboratories.
Numbered parts are unrelated; each lists some results of a single study. Changes are numbered by the printed parent chain.
UniProt P41143, sequence (whole entry, looked up): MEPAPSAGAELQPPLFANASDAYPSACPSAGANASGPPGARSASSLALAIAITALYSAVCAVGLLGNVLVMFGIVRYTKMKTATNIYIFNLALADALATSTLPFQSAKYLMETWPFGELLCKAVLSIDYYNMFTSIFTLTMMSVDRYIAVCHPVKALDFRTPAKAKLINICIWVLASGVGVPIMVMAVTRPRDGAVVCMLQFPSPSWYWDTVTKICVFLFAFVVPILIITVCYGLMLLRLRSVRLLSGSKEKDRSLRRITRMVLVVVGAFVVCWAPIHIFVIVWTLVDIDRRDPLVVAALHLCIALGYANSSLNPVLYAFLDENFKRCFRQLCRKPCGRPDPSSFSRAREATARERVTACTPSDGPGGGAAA
UniProt P28223, sequence (whole entry, looked up): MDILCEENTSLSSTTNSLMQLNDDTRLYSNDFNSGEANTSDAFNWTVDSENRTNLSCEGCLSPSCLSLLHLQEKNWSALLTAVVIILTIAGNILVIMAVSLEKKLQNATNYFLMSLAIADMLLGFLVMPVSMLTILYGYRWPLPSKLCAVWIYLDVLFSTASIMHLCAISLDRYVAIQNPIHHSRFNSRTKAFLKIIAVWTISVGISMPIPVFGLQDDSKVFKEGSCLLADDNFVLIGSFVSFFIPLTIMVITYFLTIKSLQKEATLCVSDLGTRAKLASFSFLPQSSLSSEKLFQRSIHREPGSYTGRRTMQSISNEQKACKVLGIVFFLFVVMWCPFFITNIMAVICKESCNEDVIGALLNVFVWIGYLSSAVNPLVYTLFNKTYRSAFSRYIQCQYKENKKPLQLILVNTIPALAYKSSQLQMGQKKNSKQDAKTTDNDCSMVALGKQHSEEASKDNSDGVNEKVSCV
UniProt P41145, sequence (whole entry, looked up): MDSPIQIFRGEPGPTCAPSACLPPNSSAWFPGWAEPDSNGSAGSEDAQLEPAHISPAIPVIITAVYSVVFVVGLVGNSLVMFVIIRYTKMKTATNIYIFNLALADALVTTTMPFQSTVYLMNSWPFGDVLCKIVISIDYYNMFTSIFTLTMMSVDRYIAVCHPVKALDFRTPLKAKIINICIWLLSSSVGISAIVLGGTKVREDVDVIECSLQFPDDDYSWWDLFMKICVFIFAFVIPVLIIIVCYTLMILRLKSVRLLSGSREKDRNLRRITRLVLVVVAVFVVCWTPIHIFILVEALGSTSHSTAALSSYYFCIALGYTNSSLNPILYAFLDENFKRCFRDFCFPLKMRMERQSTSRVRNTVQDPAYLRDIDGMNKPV
UniProt P11229, sequence (whole entry, looked up): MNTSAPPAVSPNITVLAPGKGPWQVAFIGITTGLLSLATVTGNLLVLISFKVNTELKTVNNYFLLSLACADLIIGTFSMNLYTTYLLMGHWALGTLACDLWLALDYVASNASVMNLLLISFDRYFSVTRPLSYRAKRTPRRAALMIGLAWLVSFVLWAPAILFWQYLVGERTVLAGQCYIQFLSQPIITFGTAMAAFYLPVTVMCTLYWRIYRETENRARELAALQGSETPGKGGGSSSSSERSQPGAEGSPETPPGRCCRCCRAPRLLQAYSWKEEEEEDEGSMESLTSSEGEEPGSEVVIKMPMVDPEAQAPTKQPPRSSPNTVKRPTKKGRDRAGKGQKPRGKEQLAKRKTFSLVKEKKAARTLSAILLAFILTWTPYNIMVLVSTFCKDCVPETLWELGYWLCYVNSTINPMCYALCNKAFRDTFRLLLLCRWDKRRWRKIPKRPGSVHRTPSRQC
UniProt P35372, sequence (whole entry, looked up): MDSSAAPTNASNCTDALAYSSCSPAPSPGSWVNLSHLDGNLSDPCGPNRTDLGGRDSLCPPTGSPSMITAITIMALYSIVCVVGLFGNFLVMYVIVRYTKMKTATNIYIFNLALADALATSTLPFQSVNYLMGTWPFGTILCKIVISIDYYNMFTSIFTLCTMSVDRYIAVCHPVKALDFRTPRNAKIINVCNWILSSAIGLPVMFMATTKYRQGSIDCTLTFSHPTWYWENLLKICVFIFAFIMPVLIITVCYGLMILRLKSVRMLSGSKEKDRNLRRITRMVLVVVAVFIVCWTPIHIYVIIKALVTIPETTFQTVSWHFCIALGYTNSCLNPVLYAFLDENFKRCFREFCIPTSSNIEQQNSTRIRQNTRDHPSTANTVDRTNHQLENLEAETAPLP
UniProt P20309, sequence (whole entry, looked up): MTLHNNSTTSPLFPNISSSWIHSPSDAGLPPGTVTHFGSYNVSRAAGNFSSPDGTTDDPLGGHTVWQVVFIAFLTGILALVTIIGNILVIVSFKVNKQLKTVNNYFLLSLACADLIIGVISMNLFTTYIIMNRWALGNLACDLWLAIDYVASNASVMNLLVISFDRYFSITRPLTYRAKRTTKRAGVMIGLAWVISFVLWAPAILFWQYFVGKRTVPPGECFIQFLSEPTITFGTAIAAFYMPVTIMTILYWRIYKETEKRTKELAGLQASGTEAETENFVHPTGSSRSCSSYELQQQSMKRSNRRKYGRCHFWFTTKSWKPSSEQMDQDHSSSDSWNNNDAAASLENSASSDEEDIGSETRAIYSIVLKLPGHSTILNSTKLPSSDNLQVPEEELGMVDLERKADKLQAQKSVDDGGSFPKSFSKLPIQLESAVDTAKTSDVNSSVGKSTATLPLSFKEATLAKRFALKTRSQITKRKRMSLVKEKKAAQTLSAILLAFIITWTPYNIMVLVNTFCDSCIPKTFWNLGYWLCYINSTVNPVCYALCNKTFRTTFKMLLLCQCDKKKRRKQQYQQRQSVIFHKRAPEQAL

Block 1
Target: HLA class I histocompatibility antigen, A alpha chain, allele A*80:01 (Homo sapiens, UniProt P04439)
Observed: peptide-MHC binding
Molecule type: peptide
Reading: direction not given
Under “z-score of log IC50”, `AFMATNKAY` is recorded as 0.38.
`FSFFMNENF` — result for “z-score of log IC50”: 0.38.
`GMHDGTVGK`: “z-score of log IC50” 0.38.
Under “z-score of log IC50”, `DLAQDPMLI` is recorded as 0.38.
Under “z-score of log IC50”, `FVRSSPANF` is recorded as 0.38.
Under “z-score of log IC50”, `FGAAVSLLF` is recorded as 0.38.
For `CLSPVVAGL`, “z-score of log IC50” read 0.38.
`FHEFLSSKL`: “z-score of log IC50” 0.38.

Block 2
Target: CCNF, cyclin fold, Cln2 fusion (human)
Method: yeast growth competition, sequencing
Matrix: yeast
Setting: strong parent motif
Baseline: not given
Reading: higher = stronger binding
Starting sequence: viral docking peptide; YKVKRRLVFGADD
`YKVKWRLVFGADD [R5W]`: “normalised enrichment score” 1.67.
`YKVKRRNVFGADD [L7N]` — result for “normalised enrichment score”: 0.88.
`YKQKRRLVFGADD [V3Q]` — result for “normalised enrichment score”: 8.38.
For `YKSKRRLVFGADD [V3S]`, “normalised enrichment score” read 8.38.
Under “normalised enrichment score”, `YKVKRRLVPGADD [F9P]` is recorded as 1.29.
`YKVKRRLIFGADD [V8I]`: “normalised enrichment score” 8.8.
`YLVKRRLVFGADD [K2L]` — result for “normalised enrichment score”: 8.73.
`YKVIRRLVFGADD [K4I]` — result for “normalised enrichment score”: 8.68.

Block 3
Structure (SMILES): O=C(NNS(=O)(=O)c1ccccc1)c1cc(-c2ccnnc2)ccc1F
Observed: cell-free assay
Concentration: 10 µM
The inhibition was 7.99% (OPRD1 (Homo sapiens, UniProt P41143)).
It gave -5.1% for inhibition (OPRK1 (Homo sapiens, UniProt P41145)).
It gave 11.8% for inhibition (HTR2A (Homo sapiens, UniProt P28223)).
It gave 26.1% for inhibition (OPRM1 (Homo sapiens, UniProt P35372)).
The inhibition was 13% (CHRM3 (Homo sapiens, UniProt P20309)).
The inhibition was 43.3% (CHRM1 (Homo sapiens, UniProt P11229)).
The inhibition was 5.79% (DRD5 (Homo sapiens, UniProt P21918)).
The inhibition was 23.1% (HTR1A (Homo sapiens, UniProt P08908)).

Single results of other studies
Under “log2 fold change”, `CCCCC/C=C\C/C=C\C/C=C\C/C=C\CCCC(=O)Nc1ccc(O)cc1` is recorded as 0.04 (Sarcocystis neurona; parasite growth; 10 µM, second screen; baseline: untreated).

For quick reference, copied from above (block 2):
Under “normalised enrichment score”, `YKVKRRLVPGADD [F9P]` is recorded as 1.29.
`YKVKRRLIFGADD [V8I]`: “normalised enrichment score” 8.8.
`YLVKRRLVFGADD [K2L]` — result for “normalised enrichment score”: 8.73.
